Experimental data collected from several papers.
Each line is one published result; not all experiments were run side by side. “And” joins repeats or separate records; there may be more than shown. Values after ≈ are worked out from the molar mass of the structure shown.

O=C(CCCN1CCC(O)(c2ccc(Cl)cc2)CC1)c1ccc(Br)cc1  IC50 (Tetrahymena pyriformis and Klebsiella pneumoniae; virulence in co-culture): 1.14 µM
CN(C)[C@@H]1C(O)=C(C(N)=O)C(=O)[C@@]2(O)C(O)=C3C(=O)c4c(O)cccc4[C@@](C)(O)[C@H]3C[C@@H]12  survival (Acinetobacter baumannii; 19606, biofilm; 25 µg/mL, added: HNP1 8 µM): 86.5% and 80.8% and 80.4% and 79.2% and 77.1% and 88.2%
Nc1ncnc2c1ncn2[C@@H]1O[C@@H]2COP(=O)(O)O[C@H]3[C@@H](O)[C@H](n4cnc5c(=O)[nH]cnc54)O[C@@H]3COP(=O)(O)O[C@H]2[C@H]1O  fold enrichment (Zika virus; upregulated Reactome pathway, RNA sequencing, item: Innate Immune System (R-HSA-168249); HFF-1; reference: ZIKV-infected untreated): 2.34
Cn1c(=O)ccc2ccc(F)c(CCNC[C@H]3CN(c4cnc5c(n4)NC(=O)CO5)C(=O)O3)c21  MIC90 (Ureaplasma spp.): < 0.015 mg/L
COCCCNC(=N)c1ccc(NC(=O)c2ccc(C(=O)Nc3ccc(C(=N)NCCCOC)cc3)cc2)cc1  IC50 (Tetrahymena pyriformis and Klebsiella pneumoniae; virulence in co-culture): 1.21 µM
CCc1c([N+](=O)[O-])oc2ccc3ccccc3c12  MIC90 (Mycolicibacterium aurum; REMA; ATCC 23366): 1 mg/L (≈ 4.15 µM)
COC1=CC(c2ccc[nH]2)=N/C1=C\c1cc(Cc2ccc(Cl)cc2)c(C)[nH]1.Cl  parasitaemia reduction (Plasmodium yoelii; CF1 mice; oral, 10 mg/kg daily for 4 days, day 5; reference: vehicle): 100%
C=C(CN(C(=O)c1c(C(F)F)nn(C)c1F)C1CC1)c1ccc(Cl)cc1Cl  colony diameter (Sclerotinia sclerotiorum; 1.56 mg/L): 23 mm and 12 mm and 20 mm and 16 mm and 15 mm
Cc1[nH]c2ccccc2c1-c1csc(-c2c[nH]c3ccccc23)n1  IC50 (Human papillomavirus 16; viral replication, Hirt-qPCR; C-33-A; transient E1/E2-dependent ori replication): 1 µM
COC1=CC(c2ccc[nH]2)=N/C1=C\c1[nH]c(Cc2ccccc2)cc1Cc1ccccc1.Cl  parasitaemia reduction (Plasmodium yoelii; CF1 mice; oral, 10 mg/kg daily for 4 days, day 5; reference: vehicle): 98%
CS(=O)(=O)CCCn1c(Cn2c(=O)n(CC(F)(F)F)c3ccncc32)cc2cc(Cl)ccc21  LS mean difference vs placebo (respiratory syncytial virus; RT-qPCR; hospitalized infants 1-24 months, nasal swab; oral, 1-9 mg/kg daily, day 14, all doses combined; reference: placebo): -0.74 log10 copies/mL
c1ccc(N2CCc3c(nnn3CC3CC3)C2)cc1  EC50 (human adenovirus 2; viral replication; HEL): > 100 µM
CN[C@H](CC(C)C)C(=O)N[C@H]1C(=O)N[C@@H](CC(N)=O)C(=O)N[C@H]2C(=O)N[C@H]3C(=O)N[C@H](C(=O)N[C@H](C(=O)O)c4cc(O)cc(O)c4-c4cc3ccc4O)[C@H](O)c3ccc(c(Cl)c3)Oc3cc2cc(c3O[C@@H]2O[C@H](CO)[C@@H](O)[C@H](O)[C@H]2O[C@H]2C[C@](C)(N)[C@H](O)[C@H](C)O2)Oc2ccc(cc2Cl)[C@H]1O  MBC (Staphylococcus aureus; CAAS-2019-CAAS-2019-17 clinical blaZ-resistant isolate, PBS): 4 mg/L (≈ 2.76 µM)
COc1nc(SC)nnc1C  IC50 (Tetrahymena pyriformis and Klebsiella pneumoniae; virulence in co-culture): > 20 µM
OC(CNC1CCCCC1)Cn1c2ccccc2c2ccccc21 (centres unmarked)  inhibition (Plasmodium yoelii; oxygen consumption; 17XL; 2 µM): 0%
CC(C)Cc1ccc([C@@H](C)[C@H](O)CC(C)C)cc1 (racemic)  inhibition (Lactobacillus acidophilus; cell survival; 100 µM, 24 h; reference: DMSO): 34%
CC[C@H](C)[C@H](NC(=O)[C@H](C)NC(=O)[C@H](CCCCN)NC(=O)[C@H](CC(C)C)NC(=O)[C@H](C)NC(=O)[C@@H](NC(=O)[C@H](Cc1c[nH]cn1)NC(=O)[C@H](CC(C)C)NC(=O)[C@@H](NC(=O)[C@@H](NC(=O)[C@H](CCCCN)NC(=O)[C@H](C)NC(=O)[C@H](C)NC(=O)[C@H](CO)NC(=O)[C@H](CCCCN)NC(=O)[C@H](Cc1ccccc1)NC(=O)[C@@H](NC(=O)[C@H](CCCCN)NC(=O)[C@H](CC(C)C)NC(=O)[C@H](Cc1ccccc1)NC(=O)[C@H](CO)NC(=O)[C@H](CCCCN)NC(=O)[C@H](Cc1c[nH]c2ccccc12)NC(=O)[C@H](CCCCN)NC(C)=O)[C@@H](C)O)[C@@H](C)O)C(C)C)[C@@H](C)O)C(=O)N[C@@H](CO)C(=O)N[C@@H](CO)C(N)=O  MIC50 (Klebsiella pneumoniae; ATCC 700603 (ESBL)): 8 mg/L (≈ 2.73 µM)
COc1ccc2c(ccc3oc([N+](=O)[O-])c(C)c32)c1  MIC90 (Klebsiella aerogenes; REMA): > 32 mg/L
Cc1c(C)c2c(c(C)c1O)CC[C@](C)(C(=O)NC1CCC(CN3CCC(c4c[nH]c5ccccc45)CC3)CC1)O2 (some centres unmarked)  IC50 (Plasmodium yoelii; 17XL; 384-well): > 20 µM
C[C@@H]1O[C@@H](O[C@H]2C[C@@H](O)[C@]3(CO)[C@H]4[C@H](O)C[C@]5(C)[C@@H](C6=CC(=O)OC6)CC[C@]5(O)[C@@H]4CC[C@]3(O)C2)[C@H](O)[C@H](O)[C@H]1O  time to adulthood (Oncopeltus fasciatus; diet, concentration not given): 23.3 days
CCCCc1ccc2nc(NC(=O)c3nc4nc(C)cc(C)n4n3)sc2c1  IC50 (Tetrahymena pyriformis and Klebsiella pneumoniae; virulence in co-culture): 0.66 µM
CCCCCC[C@H]1C(=O)O[C@H](C)[C@H](NC(=O)c2cccc(NC=O)c2O)C(=O)O[C@@H](C)[C@@H]1OC(=O)CC(C)C  viral protein level (bovine herpesvirus 1; Western blot; MDBK cells, wild type; 20 nM, 24 h): decreased
Fc1ccc(Cn2nnc3c2CCN(c2ccc(C(F)(F)F)cc2)C3)cc1  EC50 (human adenovirus 2; viral replication; HEL): > 100 µM
C=CCSc1nnc(C)c(O)n1  IC50 (Tetrahymena pyriformis and Klebsiella pneumoniae; virulence in co-culture): 2.96 µM
COc1ccc2ccc3oc([N+](=O)[O-])cc3c2c1Br  MIC90 (Mycolicibacterium aurum; REMA; ATCC 23366): 0.25 mg/L (≈ 0.776 µM)
CC1(C)SC2C(NC(=O)C(NC(=O)C3=C(O)C4CCCN4C3=O)c3ccccc3)C(=O)N2C1C(=O)O (centres unmarked)  MIC (Escherichia coli; broth microdilution; Keio mutant JW5195-1; 18 h): 50 mg/L (≈ 97.2 µM)
Cc1c2c(nn1C)CSCc1cc(n(C)n1)CSc1cc(c3ccccc3c1)OCCCc1c(C(=O)O)n(C)c3c-2c(Cl)ccc13  fold change (Staphylococcus aureus; label-free quantitative proteomics, item: SAOUHSC_02979 protein; SA113; concentration not given; reference: untreated control): 0.0743
Cc1ncc([N+](=O)[O-])n1CCO  MIC50 (Prevotella spp.; bacterial growth): 0.5 mg/L (≈ 2.92 µM)
Cc1[nH]c(/C=C2\N=C(c3ccc[nH]3)C=C2OC(C)C)cc1Cc1ccc(OC(F)(F)F)cc1.Cl  parasitaemia reduction (Plasmodium yoelii; CF1 mice; oral, 25 mg/kg daily for 4 days, day 5; reference: vehicle): 100%
COc1cccc(C(=O)NN(C(=O)c2cc(C)cc(C)c2)C(C)(C)C)c1C  developing egg count (Anopheles funestus; FUMOZ resistant, females; tarsal contact, 367 mg/m^2, with DBH-M, no RME; reference: control): no effect
COc1ccc2c(ccc3oc([N+](=O)[O-])c(OC)c32)c1  MIC90 (Mycolicibacterium aurum; REMA; ATCC 23366): > 32 mg/L
O=[N+]([O-])c1ccc(C2=[N+]([O-])c3ccccc3N3CCN=C23)cc1  MIC50 (Parabacteroides distasonis and Bacteroides spp.; bacterial growth): ≤ 0.06 mg/L
COc1cc(-c2nc(-c3ccccc3)c(-c3ccccc3)[nH]2)cc(OC)c1O  inhibition (Plasmodium yoelii; oxygen consumption; 17XL; 2 µM): 0%
CCCCc1ccc(CNc2nc(N(C)C)nc(N(C)C)c2/N=N/c2ccc(Cl)cc2)cc1  mortality (Ostrinia furnacalis; leaf dipping; 50 mg/L): 66.7%
CSCC[C@H](NC(=O)[C@H](CC(C)C)NC(=O)[C@@H](NC(=O)[C@H](Cc1ccccc1)NC(=O)[C@H](CCCCN)NC(=O)[C@H](CCCNC(=N)N)NC(=O)[C@@H](NC(=O)[C@H](Cc1ccc(O)cc1)NC(=O)[C@H](CCCNC(=N)N)NC(=O)[C@@H](N)CCCNC(=N)N)C(C)C)C(C)C)C(=O)N[C@@H](CCCNC(=N)N)C(=O)O  MBC (Staphylococcus haemolyticus): 32 mg/L (≈ 21 µM)

For quick reference, copied from above:
CN(C)[C@@H]1C(O)=C(C(N)=O)C(=O)[C@@]2(O)C(O)=C3C(=O)c4c(O)cccc4[C@@](C)(O)[C@H]3C[C@@H]12  survival (Acinetobacter baumannii; 19606, biofilm; 25 µg/mL, added: HNP1 8 µM): 86.5% and 80.8% and 80.4% and 79.2% and 77.1% and 88.2%
Nc1ncnc2c1ncn2[C@@H]1O[C@@H]2COP(=O)(O)O[C@H]3[C@@H](O)[C@H](n4cnc5c(=O)[nH]cnc54)O[C@@H]3COP(=O)(O)O[C@H]2[C@H]1O  fold enrichment (Zika virus; upregulated Reactome pathway, RNA sequencing, item: Innate Immune System (R-HSA-168249); HFF-1; reference: ZIKV-infected untreated): 2.34
Cn1c(=O)ccc2ccc(F)c(CCNC[C@H]3CN(c4cnc5c(n4)NC(=O)CO5)C(=O)O3)c21  MIC90 (Ureaplasma spp.): < 0.015 mg/L
COCCCNC(=N)c1ccc(NC(=O)c2ccc(C(=O)Nc3ccc(C(=N)NCCCOC)cc3)cc2)cc1  IC50 (Tetrahymena pyriformis and Klebsiella pneumoniae; virulence in co-culture): 1.21 µM
CCc1c([N+](=O)[O-])oc2ccc3ccccc3c12  MIC90 (Mycolicibacterium aurum; REMA; ATCC 23366): 1 mg/L (≈ 4.15 µM)
